Measurements pooled from the literature.
Each numbered part is a random draw from the data of one study; scales do not carry over between parts. Substitutions count along the parent as printed.

Series 1 — technique: DHFR PCA, deep sequencing; medium: yeast; together with: (+)-ABA 17 µM; reference: wild-type fitted maximum; direction: higher = stronger binding
Target: ABI1, truncated, D143A, DHFR fusion (Arabidopsis thaliana)
Notes: methotrexate growth selection, single substitutions
Starting sequence: PYL1, truncated, DHFR fusion (Arabidopsis thaliana); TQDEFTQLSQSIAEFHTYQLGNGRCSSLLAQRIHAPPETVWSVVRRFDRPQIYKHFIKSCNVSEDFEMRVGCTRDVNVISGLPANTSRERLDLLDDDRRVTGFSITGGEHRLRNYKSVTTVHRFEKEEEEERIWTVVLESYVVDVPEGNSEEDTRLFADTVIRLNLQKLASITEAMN; partner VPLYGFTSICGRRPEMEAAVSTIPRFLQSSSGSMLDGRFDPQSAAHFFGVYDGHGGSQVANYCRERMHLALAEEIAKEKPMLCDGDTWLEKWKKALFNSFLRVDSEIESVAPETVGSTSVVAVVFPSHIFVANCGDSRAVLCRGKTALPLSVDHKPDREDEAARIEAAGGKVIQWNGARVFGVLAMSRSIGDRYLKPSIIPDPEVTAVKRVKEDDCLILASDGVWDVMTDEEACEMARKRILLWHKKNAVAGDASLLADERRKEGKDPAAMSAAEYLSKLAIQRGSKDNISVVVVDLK
Substitution | relative binding score
A175G | 89.7%
L169A | -19.8%
D75S | 84.6%
E139M | 53.5%
G107K | 15.7%
A84M | 24.4%
R45M | 4.58%
L28C | 59.9%
E67Q | 81.8%
T119P | -2.35%
M68D | 24.8%
S117W | -10.1%
V121W | -0.168%
Q167R | 92.4%
L164N | 67.5%
S59C | 68.4%
I162P | 3.5%
I172A | 41.6%
E14Q | 78.3%
L112P | 16.6%
G23M | 65.3%
R32Y | 74%
F5N | 60.2%
P36Q | 65.1%
L91G | -7.11%

Series 2 — technique: RNA Bind-n-Seq; molecule type: RNA; medium: in vitro; concentration: 365 nM; reference: no-protein control; direction: higher = stronger binding
Target: RNA binding protein fox-1 homolog 2, RRM domain, GST-SBP tag (RBFOX2, Homo sapiens, UniProt O43251-10, residues 100-194)
Notes: natural RNA segment, single round, ends assumed
Residues (chain): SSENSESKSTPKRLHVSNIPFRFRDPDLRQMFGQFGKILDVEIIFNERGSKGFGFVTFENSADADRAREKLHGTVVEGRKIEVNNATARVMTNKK
Sequence | RBNS enrichment (R)
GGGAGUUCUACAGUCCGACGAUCACCACCCUGGGGGAGGGCCCUUCCAAAGGGAGGCUUGCUAGUUUCAGCGUCUAGCAGUUGGGUCCUCACUUUUACUCCAAUUGUGAAAAUAGCCCACGUACCCUCGCAGUUGGAAUUCUCGGGUGCCAA | 0.633
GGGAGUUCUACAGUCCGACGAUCAAUGAAAACCCUGGAUAUUCUGGUCCUGAGUUGUUCAGAUGAGGGAGAGCCAACCUAUAGUUUAACAGCUUAGGUAAGACUCACUCUGCCCAUGCUGGCCAGGGGAACCCUGGAAUUCUCGGGUGCCAA | 0.266
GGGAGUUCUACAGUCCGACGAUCCAUAACUAUUUUUAAUAUGGGUCAUUCUUAGCAUGAUUUGUAAAGGUCUCAGGCAAACAGUUGUUGAAGCUUGCUUCUGUGGCAUUUCUGAAUUGUGGCAGAGCUUAGAUUGGAAUUCUCGGGUGCCAA | 1.12
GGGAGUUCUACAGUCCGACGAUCAGAGAAAUGUUUGUCUUUCUGUUGUCUAUACAUCAAAGAAGCCAUUAAAUUGUUUUAUUUCUCAAGAGUUGCAGAUCUCAAGGGAGAUGGAGAGCCAUGAGAAAGUGUUCUGGAAUUCUCGGGUGCCAA | 1.07
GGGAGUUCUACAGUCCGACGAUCCAAACAGUACAUCUGGAGCCUGGAGAUAUCCUCAGGAAGCACAUCUGUAGUGCACUCCCAGCAGGCCAUGGACUAGUCACUAACCCCACACUCAAAGGGGCAUGGGUGGUUGGAAUUCUCGGGUGCCAA | 0.755
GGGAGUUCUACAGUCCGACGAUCAUUAGACUGGUGAGAAAGAGCAGCCAGGGGGUCAGGCUUUCAGUCACCACCCUCCUGCUGCCACAGAAGGAAGUUCUCAGUAUACACCACAGUGCACGUGCAUGAUGGAGUGGAAUUCUCGGGUGCCAA | 8.69
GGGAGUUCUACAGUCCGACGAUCAAUGGAGCAGUGGCAAUCUCCCUGUUCCCCAACCUAACUCUUGGAACUUGGCCCUCUCCUUUCUUCCUGUUAAGUCUGAGAGGGAAGAGCUAGGCUAUGAAGGGAAGAUGUGGAAUUCUCGGGUGCCAA | 0.301
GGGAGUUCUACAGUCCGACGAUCCUGCCUCCCUUGUCCUGUGAUUGUUCUGGAGGCUUCUGCCCAACUGCUUCACUUUCUCCAACCCUUCGUAGCUGCCUGGGCUCUUUUCCAACCUGUCAGGCUGGCGCCUUUGGAAUUCUCGGGUGCCAA | 0.752
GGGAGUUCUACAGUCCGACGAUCUGUCUGUUAAAUGAAUGUCAUAUGUAAAUGCUAAAAUAAAUCGACAGUGUCUCAGAACUGAAUAACUGCAGUGACUUGAUGCUCUAAAACAGUGUAGGAUUUAAGAAUAGUGGAAUUCUCGGGUGCCAA | 0.559
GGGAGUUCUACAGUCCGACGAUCCUGACUUGCUCUCAGGCCCACCCGCAGCUUUUCCAAAUACCUGCAGCCUUCAGCCCUGCUGCCCUGCCUGUGGGAGCAGCUUUGACUCCAGUCCAGAAGGGUUUCUGCAGUGGAAUUCUCGGGUGCCAA | 0.461
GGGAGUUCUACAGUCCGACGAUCAGAGAUGGCUUGAGGGUCAGGAGUACAAAGCCUUCCUGUAGAUGGCCAGAGUUUGGAUUCUAGUGCUCGUGCUGAGUGGCACACACUCAAACAUUACUCUCUCUUGGGAGUGGAAUUCUCGGGUGCCAA | 0.387
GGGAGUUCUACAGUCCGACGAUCAAGAACAACAGCAAGUCCGGAUUAAGGAAGUAACAUGCUUCUAGAAUGUUCCAAGACACUUGAGAGAAAAGACCUAGGAAAGAGAAGGUUCCUGGUGAGCCUGUGGUCUAUGGAAUUCUCGGGUGCCAA | 1.05

Series 3 — target: CREB3L2, bZIP domain (human); technique: DHFR protein complementation; medium: yeast; reference: wild-type JUN-FOS pair; direction: higher = stronger binding
Notes: single substitutions, most at no-binding floor
Starting sequence: JUN, bZIP domain (human); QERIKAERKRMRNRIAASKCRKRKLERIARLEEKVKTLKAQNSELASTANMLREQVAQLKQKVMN; partner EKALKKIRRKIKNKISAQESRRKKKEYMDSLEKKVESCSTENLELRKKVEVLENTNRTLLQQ
Substitution | binding fitness [natural log]
T37P | -1.52
A49D | -1.48
E44G | -1.51
E33C | -1.48
Q55K | -1.55
N42W | -1.49
T37M | -1.45
K39W | -1.44
A46E | -1.44
T37N | -1.39
K39P | -1.49
K34P | -1.48
S43Y | -1.31
M51A | -1.32
E44I | -1.42
A29R | -1.48
E33P | -1.55
L38A | -1.53
T48I | -1.44
S43P | -1.47
A57K | -1.44
S43L | -1.41
E44A | -1.4
K34D | -1.5
A49R | -1.46

Series 4 — target: CCNB3, cyclin fold, Cln2 fusion (human); technique: yeast growth competition, sequencing; medium: yeast; notes: weak parent motif; reference: not given; direction: higher = stronger binding
Starting sequence: RBL1 docking peptide (human); GSAKRRLFGEDPP; partner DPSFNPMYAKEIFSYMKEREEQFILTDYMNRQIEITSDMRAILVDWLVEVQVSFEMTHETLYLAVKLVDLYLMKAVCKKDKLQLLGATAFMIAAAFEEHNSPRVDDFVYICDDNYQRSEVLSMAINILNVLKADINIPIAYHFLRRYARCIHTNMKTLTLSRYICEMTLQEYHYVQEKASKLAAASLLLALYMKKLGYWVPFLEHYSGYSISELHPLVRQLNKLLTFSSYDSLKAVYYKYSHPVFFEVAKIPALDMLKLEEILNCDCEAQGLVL
Substitution | normalised enrichment score
GSAKPRLFGEDPP [R5P] | 0.67
GSAKRSLFGEDPP [R6S] | 0.517
GSAKRRLFVEDPP [G9V] | 1.39
GSWKRRLFGEDPP [A3W] | 0.603
GSAKRNLFGEDPP [R6N] | 1.08
GSAKRRLFGEDPH [P13H] | 1.08
GSACRRLFGEDPP [K4C] | 0.166
GSAKRRLFGEDPK [P13K] | 0.114
GSAKRRLFGMDPP [E10M] | 0.546
GSAKRRLKGEDPP [F8K] | 0.461
GSAKRRLFGEPPP [D11P] | 0.0717
ASAKRRLFGEDPP [G1A] | 1.03
GSAKRRLMGEDPP [F8M] | -0.16
GAAKRRLFGEDPP [S2A] | 0.594
GSAKRRLFGEVPP [D11V] | 0.341
GSAERRLFGEDPP [K4E] | 0.192

Excerpt of the above (series 4):
Substitution | normalised enrichment score
GSAKRNLFGEDPP [R6N] | 1.08
GSAKRRLFGEDPH [P13H] | 1.08
GSACRRLFGEDPP [K4C] | 0.166
GSAKRRLFGEDPK [P13K] | 0.114
GSAKRRLFGMDPP [E10M] | 0.546
